# Results from different studies.
# Every numbered part comes from another study and shows a few of its results, in no order. Positions count from the first letter of the parent shown.

# Series 1 — target: MAFG, bZIP domain (human); technique: DHFR protein complementation; sample: yeast; reference: wild-type JUN-FOS pair; reading: higher = stronger binding
# Setting: single substitutions, most at no-binding floor
# Starting sequence: JUN, bZIP domain (human); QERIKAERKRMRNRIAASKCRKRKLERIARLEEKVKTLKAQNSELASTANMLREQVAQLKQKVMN; partner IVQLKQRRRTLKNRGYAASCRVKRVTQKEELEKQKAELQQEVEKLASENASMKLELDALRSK
Change,binding fitness
T48C,-1.48 natural log
E33L,-1.42 natural log
M51V,-1.41 natural log
L59S,-1.51 natural log
L45E,-1.46 natural log
S43R,-1.27 natural log
Q55V,-1.5 natural log
L38T,-1.51 natural log
S43E,-1.48 natural log
I28C,-1.56 natural log
T37D,-1.46 natural log
I28T,-1.45 natural log
N42M,-1.35 natural log
V56Q,-1.36 natural log
A46P,-1.49 natural log
E44G,-1.48 natural log
K36S,-1.47 natural log
A40T,-1.41 natural log
T37M,-1.23 natural log
T48R,-1.4 natural log
L31S,-1.49 natural log
V35G,-1.47 natural log
E54A,-1.51 natural log
R30W,-1.53 natural log

# Series 2 — technique: protein binding microarray; form: double-stranded DNA, one strand shown; sample: in vitro; tested at: not given; reference: not given; reading: higher = stronger binding
# Target: Histone acetyltransferase KAT6A, winged helix 2, GST fusion (KAT6A, Homo sapiens, UniProt Q92794, residues 85-181)
# Setting: 8-mer, flanks averaged, mean of 2 arrays, mostly near background
# Construct (chain): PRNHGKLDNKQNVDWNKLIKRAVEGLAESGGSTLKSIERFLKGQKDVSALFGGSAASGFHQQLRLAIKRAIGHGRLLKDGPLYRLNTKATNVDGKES
Sequence,E-score
CATGGGAC,-0.15
CCCAAAAC,0.114
CGTCAATC,-0.0979
GGGTATAA,-0.00797
CTAAATAG,-0.0104
AGTTAGCC,-0.179
GTAAACAC,-0.0846
ACCACCGA,-0.077
GTAGCTCA,0.0589
CACGTGCG,-0.0509
GGTCCTTA,-0.00602
CAGCGCCA,0.0496
GCAAGAGC,0.146
ACGCTATC,-0.15
GAAGTCTC,-0.175
CACGAGAG,-0.157
CCGTCTCC,0.129
GAGTGGGC,-0.0502
CTAGGCCC,-0.123
CCAGAATA,-0.0658
ATTGAACC,-0.0905
CCAACCCA,-0.137
AAGGGCCA,-0.0564
AGTATAGC,-0.0141
CGTGGCAA,0.00626

# Series 3 — target: CCNE1, cyclin fold, Cln2 fusion (human); technique: yeast growth competition, sequencing; sample: yeast; setting: weak parent motif; reference: not given; reading: higher = stronger binding
# Starting sequence: RB1 docking peptide (human); PKPLKKLRFDIEG
Change,normalised enrichment score
K2L,0.87
F9S,-0.0468
D10A,0.772
G13T,-0.775
G13R,0.816
I11V,0.151
K6R,0.151
G13S,0.537
E12G,0.743
L7A,1.08
E12C,0.553
K2H,-0.322
L4F,0.352
K5A L7A,-0.0139
K5L,-0.0787
E12K,-0.287
K5Q,0.443
D10K,0.0699

# Series 4 — technique: RNA Bind-n-Seq; form: RNA; sample: in vitro; tested at: not given; reference: input RNA pool; reading: higher = stronger binding
# Target: RING finger protein unkempt homolog, zinc fingers 1-6, GST-SBP tag (UNK, Homo sapiens, UniProt Q9C0B0, residues 30-357)
# UniProt Q9C0B0, sequence (30-357, looked up): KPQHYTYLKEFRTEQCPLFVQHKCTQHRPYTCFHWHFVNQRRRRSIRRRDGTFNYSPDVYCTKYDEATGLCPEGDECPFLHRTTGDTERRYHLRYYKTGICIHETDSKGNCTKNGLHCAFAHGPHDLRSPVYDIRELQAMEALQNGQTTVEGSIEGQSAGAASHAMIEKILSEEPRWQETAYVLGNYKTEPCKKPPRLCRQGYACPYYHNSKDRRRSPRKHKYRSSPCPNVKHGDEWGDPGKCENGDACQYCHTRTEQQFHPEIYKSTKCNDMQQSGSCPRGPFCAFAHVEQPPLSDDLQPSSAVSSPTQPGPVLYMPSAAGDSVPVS
# Setting: RNA with constant flanks, human and mouse sites, ends assumed
# Shared flanks, not repeated: GGGAGUUCUACAGUCCGACGAUC … CAACAGAGGAUUGAGCAUCA
Sequence,bound/input enrichment [ratio]
CAGUAGCGCUUCAGCCAGCAGUUGUAGAAUGCUAUUUAUUCGUGUCUGUAAGUUUGUACAUAACCCUAACCUCGUAGGCAAGUUUGAGUUUUCUUUCCUUUGAUGCAGAUGCUUGGGUUU,0.366
UGCCACCAUACCCAAUGGAUAGAACUUGAUUUUUAAAAGCUUGUUUUGUCAACUUGUAUGUAGUACAGUGGCCAGUGAUCGCCUAGCCUGCACGAGGCCCCGGGGUUGAUCUCCCGCAUC,0.186
AUGGAGGAGAACCAGCUAAAGAGCGAAAUGCAAGACGCCAAGGACCAGAACGAGCUGUUAGAAUUCAGAGUGCUAGAACUCGAAGUAAGAGACUCUAUCUGUUGUAAGCUCUCAAACGGA,0.157
UUCUUUCCCUUCGGCGUUAUUUAUUUGUGUAUUUAUUUAUUUAUUUAUUUAUUUAUCUAUCUAUCUAUCAACUUUUGGUCCAUUCAUCACCAACAUAAAGCAAAAACAAUUUUUUACAUA,11.1
GUACUGUCUCUUUUGGAAAAGUUCUUGAUCCCCAAUGCUUCGCAACCAGAAAGCAAAGUCUUCUAUUUGAAAAUGAAGGGUGACUACUACCGUUACUUGGCCGAGGUUGCUGCUGGUGAU,0.156
AUAGAAGCAGCGCCUGAGUCCCAGAUGAUGCCCGCCAGCGUCCUAACGGGCAAUGUCAUCAUAGAGACAAAGUUCUUUGACGAUGAUCUUCUUGUCAGCACAUCCAAAGUGAGGCUUUUC,0.11
ACUGUGCAUGAACUGUUACCGGAACGACAUGAACAGAGAAGUGGUAAAGACAGACUCUGCCACCACAAGGAUCCCCGAGCUGGAUUUUGAGAUUCCAGCCUUCAGCCAGAAGGGAGCUCU,0.205
UGGCAGAUAUUCAAAACGUCAGCAACCAAAGGCACCGGCCUUGAUGAGGCAAUGGAAUGGUUAGUUGAAACAUUAAAAAGCAGACAGUAAUUCAGUCCAUUCUUCUCCCCUGAAAUGAAG,0.232

# Repeated from above (series 3):
Change,normalised enrichment score
K2L,0.87
F9S,-0.0468
D10A,0.772
G13T,-0.775
G13R,0.816
I11V,0.151
K6R,0.151
G13S,0.537
E12G,0.743
L7A,1.08
E12C,0.553
K2H,-0.322
L4F,0.352
